Results pooled from the literature.
Compare with care: the assays were run in different laboratories. Several values in a cell are separate wells, animals, samples, runs or records. ± gives the spread as reported.
Grm2: Metabotropic glutamate receptor 2 (Grm2, Rattus norvegicus, UniProt P31421)
ESR1: Estrogen receptor (ESR1, Homo sapiens, UniProt P03372)
APP amyloid-beta peptide: Amyloid-beta precursor protein, amyloid-beta peptide (APP, Homo sapiens, UniProt P05067)

Chains of the proteins cited; added tags and fusions are not shown. Residues count along the entry.
UniProt P05067, whole entry, looked up: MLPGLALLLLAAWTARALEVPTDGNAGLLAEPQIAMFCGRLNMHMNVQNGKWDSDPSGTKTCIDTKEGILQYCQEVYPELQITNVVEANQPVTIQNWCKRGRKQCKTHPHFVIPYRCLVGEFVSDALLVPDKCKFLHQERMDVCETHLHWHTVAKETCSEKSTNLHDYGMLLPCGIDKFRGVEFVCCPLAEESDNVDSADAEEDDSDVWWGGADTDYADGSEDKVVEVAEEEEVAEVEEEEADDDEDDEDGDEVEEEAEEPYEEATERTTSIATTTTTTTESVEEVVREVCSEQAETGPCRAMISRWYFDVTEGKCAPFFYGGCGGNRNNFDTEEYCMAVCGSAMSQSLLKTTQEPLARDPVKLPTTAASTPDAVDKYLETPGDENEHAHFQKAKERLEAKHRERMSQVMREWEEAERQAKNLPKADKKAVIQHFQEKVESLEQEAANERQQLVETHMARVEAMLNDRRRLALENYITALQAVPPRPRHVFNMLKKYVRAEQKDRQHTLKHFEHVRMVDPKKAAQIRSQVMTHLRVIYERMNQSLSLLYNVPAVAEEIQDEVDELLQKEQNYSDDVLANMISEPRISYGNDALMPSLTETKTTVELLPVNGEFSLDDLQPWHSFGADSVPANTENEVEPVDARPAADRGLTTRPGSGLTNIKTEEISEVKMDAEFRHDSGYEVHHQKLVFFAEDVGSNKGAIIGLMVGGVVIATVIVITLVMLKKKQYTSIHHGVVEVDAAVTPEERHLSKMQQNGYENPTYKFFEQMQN
UniProt P05067, 672-713 limits assumed: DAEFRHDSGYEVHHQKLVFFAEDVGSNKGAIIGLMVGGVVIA
UniProt Q9NRM7, whole entry: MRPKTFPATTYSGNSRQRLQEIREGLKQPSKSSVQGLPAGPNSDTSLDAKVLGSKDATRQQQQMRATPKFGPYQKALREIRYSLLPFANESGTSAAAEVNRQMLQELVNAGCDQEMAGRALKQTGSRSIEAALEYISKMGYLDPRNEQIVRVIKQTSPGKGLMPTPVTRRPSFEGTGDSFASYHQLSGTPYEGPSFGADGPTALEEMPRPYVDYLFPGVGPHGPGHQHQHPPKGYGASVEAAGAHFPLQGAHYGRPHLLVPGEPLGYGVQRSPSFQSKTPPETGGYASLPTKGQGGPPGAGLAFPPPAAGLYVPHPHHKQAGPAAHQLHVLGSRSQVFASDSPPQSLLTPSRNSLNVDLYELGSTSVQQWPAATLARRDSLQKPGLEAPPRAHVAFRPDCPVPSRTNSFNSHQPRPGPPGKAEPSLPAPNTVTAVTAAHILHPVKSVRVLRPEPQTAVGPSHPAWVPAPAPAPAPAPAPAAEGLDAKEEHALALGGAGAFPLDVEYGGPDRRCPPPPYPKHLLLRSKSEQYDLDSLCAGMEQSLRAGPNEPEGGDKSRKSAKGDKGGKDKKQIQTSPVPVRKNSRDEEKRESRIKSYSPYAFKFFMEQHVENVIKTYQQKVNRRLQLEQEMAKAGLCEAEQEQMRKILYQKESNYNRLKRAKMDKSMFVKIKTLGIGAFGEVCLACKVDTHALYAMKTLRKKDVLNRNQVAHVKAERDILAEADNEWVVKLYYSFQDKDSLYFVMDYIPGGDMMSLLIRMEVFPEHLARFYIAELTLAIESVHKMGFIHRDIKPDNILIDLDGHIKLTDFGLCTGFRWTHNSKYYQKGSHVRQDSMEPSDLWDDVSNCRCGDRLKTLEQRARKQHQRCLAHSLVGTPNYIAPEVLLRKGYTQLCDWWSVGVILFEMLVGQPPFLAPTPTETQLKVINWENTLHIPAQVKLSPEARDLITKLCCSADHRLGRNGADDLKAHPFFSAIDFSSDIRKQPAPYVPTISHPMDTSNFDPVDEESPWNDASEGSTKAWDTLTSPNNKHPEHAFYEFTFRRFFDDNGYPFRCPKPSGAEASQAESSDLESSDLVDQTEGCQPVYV
UniProt O00311, whole entry: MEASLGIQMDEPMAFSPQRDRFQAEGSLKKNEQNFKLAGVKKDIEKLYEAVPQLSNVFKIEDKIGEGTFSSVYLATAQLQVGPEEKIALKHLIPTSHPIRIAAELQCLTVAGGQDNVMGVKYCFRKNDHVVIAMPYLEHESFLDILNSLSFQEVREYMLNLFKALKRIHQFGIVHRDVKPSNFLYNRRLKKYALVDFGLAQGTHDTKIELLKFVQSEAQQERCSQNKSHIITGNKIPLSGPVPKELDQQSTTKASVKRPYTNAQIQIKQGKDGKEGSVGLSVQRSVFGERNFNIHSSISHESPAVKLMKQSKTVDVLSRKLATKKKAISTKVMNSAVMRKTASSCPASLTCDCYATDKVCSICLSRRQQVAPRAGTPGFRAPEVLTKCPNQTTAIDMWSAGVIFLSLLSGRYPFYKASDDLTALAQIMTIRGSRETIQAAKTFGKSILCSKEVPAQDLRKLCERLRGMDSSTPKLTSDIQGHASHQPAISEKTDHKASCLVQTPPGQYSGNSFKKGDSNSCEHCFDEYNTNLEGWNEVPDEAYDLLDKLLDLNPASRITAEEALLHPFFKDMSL
UniProt P14902, whole entry: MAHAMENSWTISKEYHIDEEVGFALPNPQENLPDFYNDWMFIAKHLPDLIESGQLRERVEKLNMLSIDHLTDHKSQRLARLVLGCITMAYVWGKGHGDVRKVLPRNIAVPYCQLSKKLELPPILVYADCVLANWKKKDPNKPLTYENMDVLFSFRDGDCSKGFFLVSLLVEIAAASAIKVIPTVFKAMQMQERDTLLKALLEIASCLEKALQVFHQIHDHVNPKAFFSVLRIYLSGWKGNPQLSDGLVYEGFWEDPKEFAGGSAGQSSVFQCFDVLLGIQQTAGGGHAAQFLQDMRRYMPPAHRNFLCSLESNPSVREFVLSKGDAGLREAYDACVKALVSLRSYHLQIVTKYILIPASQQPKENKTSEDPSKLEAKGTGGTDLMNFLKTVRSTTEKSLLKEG
UniProt Q9UBN7, whole entry: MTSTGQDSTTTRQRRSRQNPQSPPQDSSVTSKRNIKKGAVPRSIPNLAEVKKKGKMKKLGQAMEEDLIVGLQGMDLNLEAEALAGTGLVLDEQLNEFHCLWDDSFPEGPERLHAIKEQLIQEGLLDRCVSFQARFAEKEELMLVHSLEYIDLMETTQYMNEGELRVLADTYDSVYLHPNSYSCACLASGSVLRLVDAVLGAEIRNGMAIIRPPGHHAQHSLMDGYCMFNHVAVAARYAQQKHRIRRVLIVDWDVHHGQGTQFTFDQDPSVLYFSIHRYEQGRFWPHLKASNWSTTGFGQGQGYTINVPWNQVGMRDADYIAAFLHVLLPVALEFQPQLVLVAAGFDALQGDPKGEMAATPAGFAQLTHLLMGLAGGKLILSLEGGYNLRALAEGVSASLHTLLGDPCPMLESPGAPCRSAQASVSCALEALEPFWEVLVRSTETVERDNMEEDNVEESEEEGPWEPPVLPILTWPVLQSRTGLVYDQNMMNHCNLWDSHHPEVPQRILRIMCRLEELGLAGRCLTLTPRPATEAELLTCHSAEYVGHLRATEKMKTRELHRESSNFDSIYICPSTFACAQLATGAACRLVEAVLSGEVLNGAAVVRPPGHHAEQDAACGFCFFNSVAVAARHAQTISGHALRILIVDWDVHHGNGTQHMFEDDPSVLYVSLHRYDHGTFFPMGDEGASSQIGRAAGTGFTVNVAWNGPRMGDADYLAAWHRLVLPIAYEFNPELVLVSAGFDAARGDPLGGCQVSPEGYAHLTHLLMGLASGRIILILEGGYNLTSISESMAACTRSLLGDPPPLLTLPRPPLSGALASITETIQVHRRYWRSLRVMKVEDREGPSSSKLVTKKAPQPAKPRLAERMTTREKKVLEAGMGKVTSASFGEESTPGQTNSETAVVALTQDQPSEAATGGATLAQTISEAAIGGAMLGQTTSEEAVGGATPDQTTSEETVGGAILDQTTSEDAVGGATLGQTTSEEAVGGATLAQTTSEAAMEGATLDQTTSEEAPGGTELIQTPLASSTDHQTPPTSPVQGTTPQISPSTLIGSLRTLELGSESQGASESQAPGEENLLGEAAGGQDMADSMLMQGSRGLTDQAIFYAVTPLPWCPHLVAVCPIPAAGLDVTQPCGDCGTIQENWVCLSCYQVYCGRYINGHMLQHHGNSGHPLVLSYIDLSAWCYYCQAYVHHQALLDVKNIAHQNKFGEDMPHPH
UniProt Q00959, 23-1464 limits assumed: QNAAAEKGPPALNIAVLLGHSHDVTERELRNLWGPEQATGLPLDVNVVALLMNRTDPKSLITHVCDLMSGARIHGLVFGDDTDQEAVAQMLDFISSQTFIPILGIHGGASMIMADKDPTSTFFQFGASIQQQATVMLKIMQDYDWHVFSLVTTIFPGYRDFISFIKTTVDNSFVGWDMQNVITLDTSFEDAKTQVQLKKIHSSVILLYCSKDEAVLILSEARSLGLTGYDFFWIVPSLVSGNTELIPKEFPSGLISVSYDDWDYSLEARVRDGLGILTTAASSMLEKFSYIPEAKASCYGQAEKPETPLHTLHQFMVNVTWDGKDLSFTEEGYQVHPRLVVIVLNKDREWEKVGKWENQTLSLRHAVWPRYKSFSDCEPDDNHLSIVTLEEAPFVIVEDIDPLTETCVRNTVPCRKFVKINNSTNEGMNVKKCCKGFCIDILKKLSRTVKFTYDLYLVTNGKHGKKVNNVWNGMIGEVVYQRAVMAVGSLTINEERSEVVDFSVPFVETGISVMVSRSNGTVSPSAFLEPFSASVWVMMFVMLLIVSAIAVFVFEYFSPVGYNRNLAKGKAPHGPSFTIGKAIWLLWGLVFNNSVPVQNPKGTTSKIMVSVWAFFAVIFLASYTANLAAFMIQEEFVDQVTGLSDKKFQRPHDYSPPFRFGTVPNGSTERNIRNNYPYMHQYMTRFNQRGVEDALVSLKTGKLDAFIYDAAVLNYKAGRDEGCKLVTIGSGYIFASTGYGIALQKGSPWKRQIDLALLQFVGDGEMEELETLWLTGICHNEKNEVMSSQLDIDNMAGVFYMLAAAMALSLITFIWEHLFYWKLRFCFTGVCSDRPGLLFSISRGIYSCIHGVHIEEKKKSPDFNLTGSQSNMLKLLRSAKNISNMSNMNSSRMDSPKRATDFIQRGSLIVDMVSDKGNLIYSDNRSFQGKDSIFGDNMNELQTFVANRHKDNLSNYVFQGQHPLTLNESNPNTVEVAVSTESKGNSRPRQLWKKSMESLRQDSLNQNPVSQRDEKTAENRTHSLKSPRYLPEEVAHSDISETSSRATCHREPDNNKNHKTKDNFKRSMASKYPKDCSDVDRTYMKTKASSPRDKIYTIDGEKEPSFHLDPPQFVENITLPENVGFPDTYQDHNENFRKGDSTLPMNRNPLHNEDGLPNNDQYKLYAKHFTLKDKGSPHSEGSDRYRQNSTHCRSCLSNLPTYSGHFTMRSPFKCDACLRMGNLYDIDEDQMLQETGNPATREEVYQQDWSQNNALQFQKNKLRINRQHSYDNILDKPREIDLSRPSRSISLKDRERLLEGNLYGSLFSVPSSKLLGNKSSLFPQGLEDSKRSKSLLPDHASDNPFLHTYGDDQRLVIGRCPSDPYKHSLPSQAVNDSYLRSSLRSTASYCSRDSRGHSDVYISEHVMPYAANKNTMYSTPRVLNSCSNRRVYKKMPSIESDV
UniProt O15151, 23-111 limits assumed: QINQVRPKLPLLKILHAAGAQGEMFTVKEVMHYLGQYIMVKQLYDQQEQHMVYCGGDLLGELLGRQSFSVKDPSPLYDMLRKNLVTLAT
UniProt Q2M2I8, whole entry: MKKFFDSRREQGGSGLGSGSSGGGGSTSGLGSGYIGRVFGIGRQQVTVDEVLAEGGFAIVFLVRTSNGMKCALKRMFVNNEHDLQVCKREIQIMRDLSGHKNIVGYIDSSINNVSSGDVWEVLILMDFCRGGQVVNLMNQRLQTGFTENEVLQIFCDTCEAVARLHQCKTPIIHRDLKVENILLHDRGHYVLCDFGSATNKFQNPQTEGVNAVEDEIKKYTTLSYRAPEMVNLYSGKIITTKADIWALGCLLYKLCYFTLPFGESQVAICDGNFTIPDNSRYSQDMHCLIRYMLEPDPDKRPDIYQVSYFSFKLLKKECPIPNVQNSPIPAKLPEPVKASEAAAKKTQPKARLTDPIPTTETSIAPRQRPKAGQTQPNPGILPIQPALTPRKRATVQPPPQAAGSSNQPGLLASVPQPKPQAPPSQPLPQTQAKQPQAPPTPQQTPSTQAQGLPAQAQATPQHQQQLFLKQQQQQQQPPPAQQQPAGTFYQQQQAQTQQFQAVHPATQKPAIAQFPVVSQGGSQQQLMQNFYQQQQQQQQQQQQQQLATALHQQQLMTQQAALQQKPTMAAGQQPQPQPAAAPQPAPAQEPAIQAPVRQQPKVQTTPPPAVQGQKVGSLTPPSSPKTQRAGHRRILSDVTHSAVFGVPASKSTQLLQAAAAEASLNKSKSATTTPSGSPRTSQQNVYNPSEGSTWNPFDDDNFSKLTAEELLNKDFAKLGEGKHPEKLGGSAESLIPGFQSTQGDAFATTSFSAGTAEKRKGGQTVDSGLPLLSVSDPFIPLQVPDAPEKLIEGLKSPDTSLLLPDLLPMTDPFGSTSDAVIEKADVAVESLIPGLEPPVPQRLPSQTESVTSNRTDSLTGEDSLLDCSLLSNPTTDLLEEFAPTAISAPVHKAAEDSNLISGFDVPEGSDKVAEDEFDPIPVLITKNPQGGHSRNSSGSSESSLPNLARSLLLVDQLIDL

| Compound | tested on | test | test system | setting | how to read | measurement | value |
| --- | --- | --- | --- | --- | --- | --- | --- |
| CN1CC[C@H](c2c(O)cc(O)c3c(=O)cc(-c4ccc(Cl)cc4)oc23)[C@H](O)C1 | Cyclin-dependent kinase 2, part with cyclin A (CDK2, Homo sapiens, UniProt P24941) | enzyme activity, inhibitor | – | with cyclin A, together with: histone H1 substrate | – | IC50 | 287 nM |
| Cc1cc(-c2ccc(C3(c4ccc(Cl)cc4)CCNCC3)cc2)ccn1 | LATS2 (Homo sapiens, UniProt Q9NRM7) | kinase activity, inhibitor, radiometric HotSpot | – | together with: ATP 10 µM | – | IC50 | 3860 nM |
| COc1cccc(/C=N/NC(=O)c2cn(-c3nonc3N)nn2)c1O | SIRT6 (Homo sapiens, UniProt Q8N6T7) | deacetylase activity, inhibitor, Fluor de Lys | – | together with: Ac-RHKK(Ac)-AMC substrate | – | IC50 | 19900 ± 3050 nM |
| Cc1cc(SCc2sc(-c3ccc(F)c(C#N)c3)nc2C)ccc1OCC(=O)O | HEK293T | – | – | 18 h | – | CC50 | > 100000 nM |
| COc1ccc(-n2nc(C(F)(F)F)nc2-c2ccc(OC)nc2)cc1 | PTGS2 (Homo sapiens, UniProt P35354) | PGE2 production, inhibitor, enzyme immunoassay | human whole blood | – | – | IC50 | 776 ± 71 nM |
| O=C(NC1CC=C(c2cc3c(Nc4cc5ncsc5cc4F)ncnc3s2)CC1)NC1CCCCC1 (stereo not shown) | RIPK2 (Homo sapiens, UniProt O43353) | kinase activity, inhibitor | – | – | – | IC50 | 17 nM |
| CN(c1cccnc1)c1ccc2c(c1)c(=O)c(C(N)=O)cn2-c1ccc(F)cc1 | Grm2 | calcium mobilization, negative allosteric modulator | – | – | – | IC50 | 318 nM |
| COc1ccc(CC(=O)OCc2ccc(-n3cccn3)cc2)cc1F | – | – | BALB/c mouse, plasma | intravenous, 2 mg/kg | – | clearance | 3.21 mL/min/kg |
| COC(=O)[C@@]1(C)C=C(C(=O)Nc2cccc(C(=O)NC34CC(Nc5nccc(-c6cccnc6)n5)(C3)C4)c2)C(=O)CC1 | MAPK8 (Homo sapiens, UniProt P45983) | kinase activity, inhibitor | – | 44.44 µM, unit not given, together with: 10 mM GSH | relative to: DMSO | remaining activity | 0.0213 |
| COc1cccc(CCN2CCN(c3cc(N4CCCC4)nc(N4CCCC4)n3)CC2)c1 | Caspase-1 (CASP1, Homo sapiens, UniProt P29466) | enzyme activity, inhibitor | – | 30 min preincubation, together with: Ac-WEHD-AMC 10 µM | – | IC50 | 108 ± 13 nM |
| CN1CC[C@H](c2c(O)cc(O)c3c(=O)cc(-c4ccccc4F)oc23)[C@H](O)C1 | CSNK2A1 (Homo sapiens, UniProt P68400) | – | – | ATP at Km | – | IC50 | > 10000 nM |
| Cc1ccc2oc(-c3c4c(N)n[nH]c(=O)c4nn3-c3ccc(C(C)C)cc3)c(C)c2c1 | FGFR1 (Homo sapiens, UniProt P11362) | kinase activity, inhibitor, ELISA | – | – | – | IC50 | 24.8 ± 1.1 nM |
| O=C1OC2CC1N(C(=O)c1cc(Cc3n[nH]c(=O)c4ccccc34)ccc1F)C2 (stereo not shown) | PARP1 (Homo sapiens, UniProt P09874) | enzyme activity | – | experiment Exp3 | – | IC50 | 1.44 nM |
| Clc1ccc(C2(c3ccc(-c4ncnc5[nH]cnc45)cc3)CCNCC2)cc1 | LATS1 (Homo sapiens, UniProt O95835) | kinase activity, inhibitor, radiometric HotSpot | – | together with: ATP 10 µM | – | IC50 | 38 nM |
| CC(C)CNC(=O)CSc1nc2ccc(NC(=O)CSc3ccc(C(C)(C)C)cc3)cc2s1 | ESR1 | reporter gene, antagonist | HEC-1 transfected ERα luciferase reporter | – | – | IC50 | > 50000 nM |
| CCn1c(-c2cc(NC(=O)c3cnccn3)n[nH]2)cc2ccc(OC)cc21 | GSK3B (Homo sapiens, UniProt P49841) | enzyme activity, inhibitor | – | – | – | IC50 | 8600 ± 680 nM |
| CCCCCN(C)C(=O)Oc1ccccc1C=C1Cc2cc(OC)c(OC)cc2C1=O | Cocaine esterase (CES2, Homo sapiens, UniProt O00748) | inhibitor | – | 33 min preincubation, together with: fluorescein diacetate | – | IC50 | 5.44 ± 0.57 nM |
| COc1ccc2[nH]cc(/C=C/c3cccc(O)c3)c2c1 | APP amyloid-beta peptide | Aβ42 oligomerisation, ELISA | – | – | – | IC50 | 7000 nM |
| CCC[C@@H]([C@@H](CC(C)C)C(=O)N[C@@H](CCCCNC(=O)OCc1ccccc1)C(=O)Nc1nccs1)N(O)C=O | Disintegrin and metalloproteinase domain-containing protein 9 (Adam9, Mus musculus, UniProt Q61072) | EphB4-AP shedding, inhibitor, cell-based | Adam10/17 knockout mouse fibroblasts | 2 h | relative to: inactive E>A mutant | IC50 | 480 nM |
| CC(C)[C@H](N)c1nc2cc(-c3cnoc3)sc2c(=O)[nH]1 | CDC7 (Homo sapiens, UniProt O00311) | enzyme activity, inhibitor | – | – | – | IC50 | > 10000 nM |
| Cc1nc(N)sc1-c1csc(Nc2ccc(N)cc2)n1 | Protein-lysine 6-oxidase (Homo sapiens, UniProt P28300) | LOX activity, inhibitor | MDA-MB-231 | – | – | IC50 | > 10000 nM |
| COc1ccc2[nH]cc(/C=C/c3ccncc3)c2c1 | APP amyloid-beta peptide | Aβ42 oligomerisation, ELISA | – | – | – | IC50 | 13100 nM |
| O=C(Nc1ccc2cc(NC(=O)C(F)(F)F)nc(Br)c2c1)C(F)(F)F | CUGBP Elav-like family member 1, RRM1/2 (CELF1, Homo sapiens, UniProt Q92879) | RRM1/2-RNA binding, inhibitor, fluorescence polarization | – | together with: Cy3 GU RNA probe | – | IC50 | 12300 nM |
| Cc1c(-c2ccc3c(c2)OCCO3)cccc1N1C(=O)c2cc(CNC3CCOCC3)c(OCc3cccc(C#N)c3)cc2C1=O | Programmed cell death 1 ligand 1, with PD-1 (CD274, Homo sapiens, UniProt Q9NZQ7) | PD-1/PD-L1 binding, inhibitor, TR-FRET | – | – | – | IC50 | 50.4 nM |
| O=C(O)CCC(C(=O)/C=C/c1ccc(O)c(OC(F)(F)F)c1)C(=O)/C=C/c1ccc(O)c(OC(F)(F)F)c1 | Amyloid-beta precursor protein, Aβ aggregates (APP, Homo sapiens, UniProt P05067) | binding, thioflavin T competition | – | – | – | IC50 | 820 nM |

| Compound | tested on | test | test system | setting | how to read | measurement | value |
| --- | --- | --- | --- | --- | --- | --- | --- |
| Cc1cccc(NC(=O)CSc2nc(-c3ccc(F)cc3)cc(C(F)(F)F)c2C#N)c1 | TAAR1 (Homo sapiens, UniProt Q96RJ0) | – | – | – | – | IC50 | > 10000 nM |
| COC(=O)/C=C/CNC(=O)c1c(C)n(C2CCCC2)c2ccc(OC)cc12 | E3 ubiquitin-protein ligase NEDD4 (Homo sapiens, UniProt P46934) | ubiquitination, inhibitor, Ub-TR-FRET | – | HECT domain | – | IC50 | 8760 ± 470 nM |
| O=c1[nH]c2ccc(S(=O)(=O)N3CCNCC3)cc2o1 | NUDT15 (Homo sapiens, UniProt Q9NV35) | enzyme activity, inhibitor, malachite green | – | together with: dGTP | – | IC50 | > 100000 nM |
| C1=C(CCNCc2ccccc2)CCCC1 | Phenylalanine--tRNA ligase alpha subunit (Homo sapiens, UniProt Q9Y285) | phenylalanine activation, inhibitor | – | human enzyme | – | IC50 | > 300 µg/mL |
| CCN1CCN(c2ccc(Nc3ncc4c(n3)N(C)C(=O)N(c3cc(NC(=O)c5cccc(C(F)(F)F)c5)ccc3C)C4)cc2)CC1 | FGFR4 (Homo sapiens, UniProt P22455) | enzyme activity, inhibitor, radiometric kinase | – | – | – | IC50 | 5.82 nM |
| COC(=O)[C@@H]1C(C=Nc2cncnc2N)=Cc2cc3c(cc2[C@H]1c1cc(OC)c(OC)c(OC)c1)OCO3 | Tubulin alpha/beta heterodimer (Leishmania infantum, UniProt A0A381MCS3+A4HTR0) | tubulin polymerization, inhibitor | – | 37 °C, together with: tubulin 1.2 mg/mL | – | IC50 | 1640 nM and 1600 nM |
| NC(=O)c1cn(-c2ccc(F)cc2)c2ccc(CN3CCSCC3)cc2c1=O | Grm2 | calcium mobilization, negative allosteric modulator | – | – | – | IC50 | 420 nM |
| CC(C)Oc1cc(C(=O)N2CCC(N3CCN(C)CC3)CC2)ccc1Nc1ncc2c(n1)N(C1CCCC1)c1ccccc1C(=O)N2C | MAPK7 (Homo sapiens, UniProt Q13164) | kinase activity | – | – | – | IC50 | 160 ± 8 nM |
| CS(=O)(=O)Oc1cccc(/C=C/c2c[nH]c3ccc(C#N)cc23)c1 | IDO1 (Homo sapiens, UniProt P14902) | enzyme activity, inhibitor | – | – | – | IC50 | > 50000 nM |
| O=C(NO)c1cc(F)cc(F)c1 | HDAC6 (Homo sapiens, UniProt Q9UBN7) | enzyme activity, inhibitor, electrophoretic mobility shift | – | together with: FAM-RHKK(Ac)-NH2 1 µM | – | IC50 | 121 nM |
| CS(=O)(=O)Nc1cccc(/C=C/c2c[nH]c3ccc(C#N)cc23)c1 | APP amyloid-beta peptide | Aβ42 oligomerisation, ELISA | – | – | – | IC50 | 9800 nM |
| O=C(Nc1ccc(Cl)cc1)C(NS(=O)(=O)c1cccs1)c1ccccc1Cl (stereo not shown) | Uracil nucleotide/cysteinyl leukotriene receptor, long isoform (GPR17, Homo sapiens, UniProt Q13304) | calcium mobilization, antagonist | 1321-N1 | – | – | IC50 | 17900 ± 730 nM |
| COC(=O)c1c(O)cc2c(c1C)C(=O)c1c(O)cccc1C2=O | Rhomboid protease AarA (Providencia stuartii, UniProt P46116) | inhibitor, fluorogenic peptide substrate | – | – | – | IC50 | 22500 nM |
| O=Cc1c(O)c2c(c3c1CC(O)OC3=O)CCC2 (stereo not shown) | 14 kDa phosphohistidine phosphatase (Homo sapiens, UniProt Q9NRX4) | – | – | together with: DiFMUP substrate | – | IC50 | 3400 ± 700 nM |
| Cc1cc(SCc2sc(-c3cn[nH]c3)nc2C)ccc1OCC(=O)O | HEK293T | – | – | 18 h | – | CC50 | not toxic |
| O=C(NNC(=S)Nc1cccc(C(F)(F)F)c1)c1cccn1-c1ccc(F)cc1 | AHSA1/HSP90AB1 (Homo sapiens, UniProt O95433+P08238) | Aha1-stimulated ATPase activity, inhibitor, quinaldine red | – | – | – | IC50 | 300 nM |
| O=C(c1ccc(O)c(I)c1)N1Cc2ccccc2C1 | HSP90AA1 (Homo sapiens, UniProt P07900) | binding, fluorescence polarization | – | together with: FITC-geldanamycin tracer | – | IC50 | > 100000 nM |
| Nc1ncc(-c2ccc3ncnc(N4CCc5cc(F)c(Cl)cc54)c3c2)cn1 | – | – | CD1 mouse, plasma | oral, 100 mg/kg | – | AUC(0-t) | 26500 ng·h/mL |
| Cn1ccnc1SCC(=O)Nc1ccc2nc(SCC(=O)NC3CC3)sc2c1 | ESR1 | reporter gene, antagonist | HEC-1 transfected ERα luciferase reporter | – | – | IC50 | 20000 to 50000 nM |
| O=C(O)c1cc(C(=O)N[C@@H](Cc2ccc(O)cc2)C(=O)O)cc([C@H]2CCN[C@@H]2C(=O)O)c1 | Glutamate receptor ionotropic, NMDA 2A, with GluN1 (Grin2a, Rattus norvegicus, UniProt Q00959) | ion current, antagonist, two-electrode voltage clamp | Xenopus oocytes | GluN1/GluN2A, together with: glycine 100 µM and glutamate 1 µM | – | IC50 | 1870 ± 80 nM |
| CC(C)Oc1cc(C#N)ccc1C1=N[C@@H](c2cccc(Cl)c2)[C@@H](c2ccc(Cl)cc2)N1C(=O)N1CCNC(=O)C1 | Protein Mdm4, N-terminal domain (MDM4, Homo sapiens, UniProt O15151) | MdmX-p53 binding, fluorescence polarization | – | MdmX residues 23-111 | – | IC50 | 8600 nM |
| COc1cc2nccc(Nc3ccc(OCc4cccc(F)c4)c(Cl)c3)c2cc1OC | PKN3 (Homo sapiens, UniProt Q6P5Z2) | binding, split-luciferase | – | – | – | IC50 | 8200 nM |
| NCCCSc1c2ccccc2nc2ccccc12 | HASPIN (Homo sapiens, UniProt Q8TF76) | inhibitor, TR-FRET | – | together with: histone H3 peptide | – | IC50 | 9800 nM |
| NC1CCN(Cc2ccn3ncnc(Nc4cccc(-c5cnco5)c4)c23)CC1 | AAK1 (Homo sapiens, UniProt Q2M2I8) | – | – | – | – | IC50 | 770 nM |

Repeated from above:
| Compound | tested on | test | test system | setting | how to read | measurement | value |
| --- | --- | --- | --- | --- | --- | --- | --- |
| C1=C(CCNCc2ccccc2)CCCC1 | Phenylalanine--tRNA ligase alpha subunit (Homo sapiens, UniProt Q9Y285) | phenylalanine activation, inhibitor | – | human enzyme | – | IC50 | > 300 µg/mL |
| CCN1CCN(c2ccc(Nc3ncc4c(n3)N(C)C(=O)N(c3cc(NC(=O)c5cccc(C(F)(F)F)c5)ccc3C)C4)cc2)CC1 | FGFR4 (Homo sapiens, UniProt P22455) | enzyme activity, inhibitor, radiometric kinase | – | – | – | IC50 | 5.82 nM |
| COC(=O)[C@@H]1C(C=Nc2cncnc2N)=Cc2cc3c(cc2[C@H]1c1cc(OC)c(OC)c(OC)c1)OCO3 | Tubulin alpha/beta heterodimer (Leishmania infantum, UniProt A0A381MCS3+A4HTR0) | tubulin polymerization, inhibitor | – | 37 °C, together with: tubulin 1.2 mg/mL | – | IC50 | 1640 nM and 1600 nM |
